Measurements pooled from the literature.
Every numbered part comes from another study and shows a few of its results, in no order.

Series 1
Target: Ras GTPase-activating protein-binding protein 1, full length (G3BP1, Homo sapiens, UniProt Q13283)
Sequence of UniProt Q13283 (whole entry, looked up): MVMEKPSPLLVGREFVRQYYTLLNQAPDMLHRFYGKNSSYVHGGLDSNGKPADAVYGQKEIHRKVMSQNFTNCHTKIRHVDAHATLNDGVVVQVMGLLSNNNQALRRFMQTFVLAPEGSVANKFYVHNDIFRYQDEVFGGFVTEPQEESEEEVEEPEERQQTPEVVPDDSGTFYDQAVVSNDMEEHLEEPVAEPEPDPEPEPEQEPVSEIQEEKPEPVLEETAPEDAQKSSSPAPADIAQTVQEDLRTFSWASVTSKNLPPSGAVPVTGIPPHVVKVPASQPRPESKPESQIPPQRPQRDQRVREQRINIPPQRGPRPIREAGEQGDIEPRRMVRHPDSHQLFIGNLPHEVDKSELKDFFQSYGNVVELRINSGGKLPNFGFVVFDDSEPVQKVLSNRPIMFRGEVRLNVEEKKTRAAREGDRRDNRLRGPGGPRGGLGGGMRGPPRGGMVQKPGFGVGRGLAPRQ
Technique: RNA Bind-n-Seq
Form: RNA
Matrix: in vitro
Concentration: 200 nM
Setting: whole 134-nt RNA, ends assumed
Together with: 150 mM KCl
Baseline: input library
Reading: higher = stronger binding
The log2 enrichment of `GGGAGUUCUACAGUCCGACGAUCAAGUCCUGUGCUACACAUCGUAUGUACCGAAUCGGGAAAAGGGAAAAGGGAAAAGGAAAGUAUUAUGUUACGCCGUUCGGAUCUGCACUUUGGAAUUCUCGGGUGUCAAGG` is reported as -0.771.
The log2 enrichment of `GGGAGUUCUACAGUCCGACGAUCUGGGAGGUGGAUUUUGUUUAUUUUUUUAGCUCAUUUCCAGGGGUGGGAAUUUUUUUUUAAUAUGUGUCAUGCAUAAAGUUGUUUUUGAAAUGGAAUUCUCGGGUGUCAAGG` is reported as 0.181.
For `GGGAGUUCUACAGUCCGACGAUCGCAGGAAGUAAAAACGAAUGGAAAUGCUUCGGAUAGUGGCAGGGGUGGGGGUUGCUAAGGAAAGGGUGGGAUGGGAGUGGGUAAAGAGUUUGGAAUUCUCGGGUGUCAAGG`, the log2 enrichment was 0.949.
`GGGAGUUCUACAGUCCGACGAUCACCAUGCAGGUGGGCAUCUUUGGGAAGUGGGGCAAGGGGGGGAUAGGGAGGGGGGUAACACUUUGGGAACAGGUGGUCCCAGGUCGUUUGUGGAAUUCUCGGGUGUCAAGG` has a log2 enrichment of 1.51.
The log2 enrichment of `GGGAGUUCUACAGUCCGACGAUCAAGUCCUGUGCUACACAUCGUAUGUACCGAAUCAAACCCAAAUUUAAAUUUUUAAAAAAGUAUUAUGUUACGCCGUUCGGAUCUGCACUUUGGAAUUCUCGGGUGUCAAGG` is reported as -0.319.
`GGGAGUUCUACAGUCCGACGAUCUGGCCCUGGUGGCAUGCGGGGAGGAAGAGGUGGCCUCAUCGAUCGUGGUGGUCCCGGUGGAAUGUUCAGAGGUGGCCGUGGUGGAGACAGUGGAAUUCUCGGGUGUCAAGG` gave a log2 enrichment of 0.205.
`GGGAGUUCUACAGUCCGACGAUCGUCCUGUGCUACACAUCGUAUGUACCGAAUCGGGGAAAAAAAGGGGAGGGGUUUGGGGAAAGUAUUAUGUUACGCCGUUCGGAUCUGCACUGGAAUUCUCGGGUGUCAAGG` has a log2 enrichment of 0.258.

Series 2
Target: Phosphate system positive regulatory protein PHO4, full length, GST-tagged (PHO4, Saccharomyces cerevisiae, UniProt P07270, residues 1-312)
Technique: competition protein-binding microarray
Form: double-stranded DNA, one strand shown
Matrix: in vitro
Concentration: 2 µM
Setting: whole 60-bp probe, lowest competitor level
Together with: Cbf1 competitor, 0.05 µM
Reading: higher = stronger binding
Residues (chain): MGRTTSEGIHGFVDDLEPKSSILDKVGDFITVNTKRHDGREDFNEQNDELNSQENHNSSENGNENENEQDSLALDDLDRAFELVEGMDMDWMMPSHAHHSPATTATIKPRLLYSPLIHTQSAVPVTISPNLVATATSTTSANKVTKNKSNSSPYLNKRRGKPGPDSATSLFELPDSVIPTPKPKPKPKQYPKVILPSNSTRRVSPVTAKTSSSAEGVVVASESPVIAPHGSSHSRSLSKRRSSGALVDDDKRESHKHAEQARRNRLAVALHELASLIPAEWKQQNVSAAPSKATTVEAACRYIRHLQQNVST
`GTCTTGTCTCATTGCGTCGTGGGTGTCCCCACTTCAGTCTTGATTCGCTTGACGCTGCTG` gave a fluorescence intensity of 7120 a.u.
With `CATACCATCTTTAGCGACGTGTGGAAGACCCGATTCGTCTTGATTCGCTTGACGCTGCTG` the fluorescence intensity was 5050 a.u.
`TTCATTGTAGATAGTACCGTGATGGCCTTCGGCAGGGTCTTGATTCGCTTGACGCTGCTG` has a fluorescence intensity of 4960 a.u.
For `TGGGATAATATCTTCCACGTGATGGTTGAACAACCAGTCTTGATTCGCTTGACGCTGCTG`, the fluorescence intensity was 15600 a.u.
For `CTAACGAAGGTTTGTTTCGTGGGTGACAAGCCAAGTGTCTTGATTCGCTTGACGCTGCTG`, the fluorescence intensity was 4650 a.u.

Series 3
Target: Histone acetyltransferase KAT6A, winged helix 2, GST fusion (KAT6A, Homo sapiens, UniProt Q92794, residues 85-181)
Technique: protein binding microarray
Form: double-stranded DNA, one strand shown
Matrix: in vitro
Concentration: not given
Setting: 8-mer, flanks averaged, mean of 2 arrays, mostly near background
Baseline: not given
Reading: higher = stronger binding
Target sequence (chain): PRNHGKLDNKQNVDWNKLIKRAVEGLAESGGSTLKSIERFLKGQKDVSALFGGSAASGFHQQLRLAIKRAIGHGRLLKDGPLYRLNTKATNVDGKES
For `CACAATGA`, the E-score was 0.00504.
`ATAGCCAC` gave an E-score of -0.0744.
With `CTTATCAC` the E-score was -0.0513.
The E-score of `CTAATCTC` is reported as 0.0251.
`CGCTTGTA` has an E-score of 0.026.

Single results of other studies
For `PhoQ, residues 284 288 289 292 302 303 TSTLRA`, the fold induction was 11 (PhoP, residues 12 14 15 18 19 TTLRV (Escherichia coli, UniProt P23836); Sort-seq, item: YFP reporter; E. coli; PhoQ-PhoP variant library, together with: 10 µM Mg2+; baseline: high Mg2+ state, higher = stronger signaling).

Some of these lines once more (single results of other studies):
For `PhoQ, residues 284 288 289 292 302 303 TSTLRA`, the fold induction was 11 (PhoP, residues 12 14 15 18 19 TTLRV (Escherichia coli, UniProt P23836); Sort-seq, item: YFP reporter; E. coli; PhoQ-PhoP variant library, together with: 10 µM Mg2+; baseline: high Mg2+ state, higher = stronger signaling).
